Results collected from several papers.
Each numbered part is a random draw from the data of one study; scales do not carry over between parts. Changes are numbered by the printed parent chain.

Block 1
Target: CCNA1, cyclin fold, Cln2 fusion (human)
Technique: yeast growth competition, sequencing
Medium: yeast
Setting: weak parent motif
Relative to: not given
Direction: higher = stronger binding
Measurement: normalised enrichment score
Parent: DBF4 docking peptide (human); DDIVSKLVFDFVE; partner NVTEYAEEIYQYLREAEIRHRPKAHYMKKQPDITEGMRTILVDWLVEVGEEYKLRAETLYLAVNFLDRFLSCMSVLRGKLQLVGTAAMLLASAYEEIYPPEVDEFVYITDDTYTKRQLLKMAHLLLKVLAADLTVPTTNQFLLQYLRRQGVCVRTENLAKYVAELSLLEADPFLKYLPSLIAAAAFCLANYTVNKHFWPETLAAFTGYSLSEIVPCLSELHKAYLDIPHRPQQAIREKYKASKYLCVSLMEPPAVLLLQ
I3A: -0.295
K6A: -0.276
V4A: -0.379
D10A: -0.601
S5A: -0.443
F11A: -0.504
V8A: -0.357

Block 2
Target: ABI1, truncated, D143A, DHFR fusion (Arabidopsis thaliana)
Technique: DHFR PCA, deep sequencing
Medium: yeast
Setting: methotrexate growth selection, single substitutions
Together with: (+)-ABA 0.39 µM
Relative to: wild-type fitted maximum
Direction: higher = stronger binding
Measurement: relative binding score
Parent: PYL1, truncated, DHFR fusion (Arabidopsis thaliana); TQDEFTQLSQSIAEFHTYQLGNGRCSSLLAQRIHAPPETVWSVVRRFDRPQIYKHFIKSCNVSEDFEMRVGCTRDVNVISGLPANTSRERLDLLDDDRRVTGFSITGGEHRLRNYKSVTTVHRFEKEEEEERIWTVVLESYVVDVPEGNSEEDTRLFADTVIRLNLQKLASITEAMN
D48V: -8.98%
A84R: 4.97%
D65A: 16.3%
V143R: 7.65%
T101F: 73.1%
M176V: 16.8%
T106I: 108%
E4C: 32.1%
L164C: 45.3%
E14H: 4.62%
R24S: 14.3%
F5D: 12.3%
Q51H: 26.7%
D96Q: 3.59%
E129S: 55.1%
Q10I: 7.43%
R74H: -8.5%

Block 3
Target: Histone acetyltransferase KAT6A, winged helix 2, GST fusion (KAT6A, Homo sapiens, UniProt Q92794, residues 85-181)
Technique: protein binding microarray
Molecule type: double-stranded DNA, one strand shown
Medium: in vitro
Concentration: not given
Setting: 8-mer, flanks averaged, mean of 2 arrays, mostly near background
Relative to: not given
Direction: higher = stronger binding
Measurement: E-score
Residues (chain): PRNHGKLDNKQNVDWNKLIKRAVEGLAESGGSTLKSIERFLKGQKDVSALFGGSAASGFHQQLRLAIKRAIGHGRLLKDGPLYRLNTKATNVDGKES
ATTAATTA: 0.122
CGGACCAA: 0.151
ATGGTATG: -0.157
ACATTTTC: -0.0522
AGCGAATC: 0.0425
CAGAGTCC: -0.00112
GCTAACTA: 0.0443
CCGCGGCC: 0.316
CCAAGAAG: 0.0374
CGATTATA: -0.00453
AATATTGC: 0.0415
TATTACAA: -0.048
AGTGGCCC: -0.0247
CTAATTCA: 0.0209
AGGATATC: -0.0917
AGATGCAA: -0.0772
ACCCGGAA: 0.0942
AAGCGGCC: -0.13
CGCGATTC: 0.248

Block 4
Target: Ras GTPase-activating protein-binding protein 1, C-terminal RGG region (G3BP1, Homo sapiens, UniProt Q13283)
Sequence of UniProt Q13283 (whole entry, looked up): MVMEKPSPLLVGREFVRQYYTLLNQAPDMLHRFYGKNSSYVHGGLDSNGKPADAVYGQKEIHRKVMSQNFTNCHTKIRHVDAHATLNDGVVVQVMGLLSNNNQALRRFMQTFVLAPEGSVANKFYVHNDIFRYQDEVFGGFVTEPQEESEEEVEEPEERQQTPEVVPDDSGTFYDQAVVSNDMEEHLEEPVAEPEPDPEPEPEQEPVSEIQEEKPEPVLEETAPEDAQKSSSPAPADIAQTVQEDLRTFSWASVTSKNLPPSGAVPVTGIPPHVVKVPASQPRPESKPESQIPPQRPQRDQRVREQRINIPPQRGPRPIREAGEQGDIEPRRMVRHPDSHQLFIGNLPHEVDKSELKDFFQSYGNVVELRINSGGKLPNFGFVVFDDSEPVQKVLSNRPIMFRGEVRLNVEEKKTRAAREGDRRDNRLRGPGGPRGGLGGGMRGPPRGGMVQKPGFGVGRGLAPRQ
Technique: RNA Bind-n-Seq
Molecule type: RNA
Medium: in vitro
Concentration: 1 µM
Setting: whole 134-nt RNA, ends assumed
Together with: 150 mM KCl
Relative to: input library
Direction: higher = stronger binding
Measurement: log2 enrichment
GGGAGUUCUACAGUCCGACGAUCUUCGACGGCGCCGGGCGAGUGGCUGUUGAGCGGCGCCGCGGGAGUUCCGCAGGUUUCCCGUGUUCGCAGCGGAGCCGGAGGCCAGCUGAAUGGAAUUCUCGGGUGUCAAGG: -3.3
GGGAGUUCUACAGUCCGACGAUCCUCAAGUCCUGUGCUACACAUCGUAUGUACCGAAUCGGCCGGGCCGGGCCGGGGAAAGUAUUAUGUUACGCCGUUCGGAUCUGCACUUCCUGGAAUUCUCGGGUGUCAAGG: -1.28
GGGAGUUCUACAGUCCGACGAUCCUGUGCUACACAUCGUAUGUACCGAAUCGGGGUUUUUGGGGAAAAAAAGGGGUUUUUGGGGAAAGUAUUAUGUUACGCCGUUCGGAUCUGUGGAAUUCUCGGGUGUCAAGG: 0.64
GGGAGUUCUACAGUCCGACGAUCGCAGGAAGUAAAAUCAAAUGGAAAUGCUUCGGAUAGUGGCAGGGGUGGGGGUUGCUAAGGAAAGGGUGGGAUGGGAGUGGGUAAAGAGUUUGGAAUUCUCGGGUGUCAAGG: 1.93
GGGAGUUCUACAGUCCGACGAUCUAACUUUAGAGGAGGAUCUGAUGGAUAUGGCAGUGGACGUGGAUUUGGGGAUGGCUAUAAUGGGUAUGGAGGAGGACCUGGAGGUGGCGAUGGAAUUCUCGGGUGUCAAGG: -1.14
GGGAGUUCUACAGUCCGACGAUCUCAAGUCCUGUGCUACACAUCGUAUGUACCGAAUCGUGUGUGUGUGUGUGUGUGAAAGUAUUAUGUUACGCCGUUCGGAUCUGCACUUCCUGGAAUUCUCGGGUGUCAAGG: 0.909
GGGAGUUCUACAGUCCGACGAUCUCCUGUGCUACACAUCGUAUGUACCGAAUCGGGGUUUUUGGGGUUUUUUUGGGGAGGGGAAAGUAUUAUGUUACGCCGUUCGGAUCUGCAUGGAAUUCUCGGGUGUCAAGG: 1.58
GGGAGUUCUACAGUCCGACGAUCAAGUCCUGUGCUACACAUCGUAUGUACCGAAUCGGGAAAAAGGAAAAAGGAAAAAGGAAAGUAUUAUGUUACGCCGUUCGGAUCUGCACUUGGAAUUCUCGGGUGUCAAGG: -2.02
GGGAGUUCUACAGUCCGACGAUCAGUCCUGUGCUACACAUCGUAUGUACCGAAUCGGGUGGGUUUUUGGGAAAAAAAGGGAAAGUAUUAUGUUACGCCGUUCGGAUCUGCACUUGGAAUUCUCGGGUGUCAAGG: -0.257
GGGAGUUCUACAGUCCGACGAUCCCUGUGCUACACAUCGUAUGUACCGAAUCGGGGAAAAAGGGGUUUGGGGUUUUUUUGGGGAAAGUAUUAUGUUACGCCGUUCGGAUCUGCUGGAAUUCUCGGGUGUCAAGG: 1.24

Block 5
Target: ATF7, bZIP domain (human)
Technique: DHFR protein complementation
Medium: yeast
Setting: single substitutions, most at no-binding floor
Relative to: wild-type JUN-FOS pair
Direction: higher = stronger binding
Measurement: binding fitness
Parent: JUN, bZIP domain (human); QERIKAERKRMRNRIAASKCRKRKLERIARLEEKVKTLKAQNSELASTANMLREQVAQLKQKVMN; partner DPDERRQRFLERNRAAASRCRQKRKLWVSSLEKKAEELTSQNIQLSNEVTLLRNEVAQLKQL
L31C: -1.4 natural log
E33N: -1.23 natural log
R30S: -0.743 natural log
L31K: -1.52 natural log
I28V: -0.876 natural log
S43W: -1.12 natural log
K39C: -1.08 natural log
Q55T: -1.06 natural log
E32P: -1.34 natural log
E54D: -1.17 natural log
R53T: -1.2 natural log
K34T: -0.986 natural log
M51G: -1.12 natural log
I28C: -1.26 natural log
V56A: -1.27 natural log
A40Q: -0.647 natural log
L38T: -1.37 natural log
E32A: -0.711 natural log
L59R: -1.47 natural log
M51D: -0.858 natural log
T37C: -0.767 natural log
S43Y: -1.03 natural log
L59S: -1.32 natural log
K34W: -1.02 natural log

Some of these lines once more (block 5):
L31K: -1.52 natural log
T37C: -0.767 natural log
A40Q: -0.647 natural log
V56A: -1.27 natural log
I28V: -0.876 natural log
Q55T: -1.06 natural log
I28C: -1.26 natural log
K34W: -1.02 natural log
L59R: -1.47 natural log
